Results of several laboratories.
Numbers after ± are the reported error.

The half-life of `CN(C(=O)C(C)(C)c1cc(C(F)(F)F)cc(C(F)(F)F)c1)c1cnc(N2C[C@H]3COCCN3C[C@H]2CO)cc1-c1ccc(F)cc1[14CH3]` is reported as 11.6 h (item: total radioactivity; human, whole blood; oral, 120 mg).
For `CC(C)[C@H](N)C(=O)NCCCS(=O)(=O)O`, the half-life was 0.918 h (human, plasma; oral, 171 mg once daily, day 1, fasted, capsule).
For `COc1ncc(-c2nc3c(n2C(C)C)[C@H](c2ccc(Cl)cc2)N(c2cc(Cl)cn(C)c2=O)C3=O)c(OC)n1`, the half-life was 7.3 h (LC-MS/MS, noncompartmental; human, plasma; oral, 45 mg, low-dose, median).
With `Cc1nc(-c2ccc(OCC(C)C)c(C#N)c2)sc1C(=O)O` the half-life was 6.56 h (human, plasma; oral, 20 mg once daily, geometric mean, added: verinurad 5 mg).
For `CN(C)N=Nc1[nH]cnc1C(N)=O`, the half-life was ~2.5 h (human patients, plasma; intravenous, 1000 mg/m^2, cycle 2, without co-drug).
With `O=C(O)CCC(=O)O.[2H]C([2H])([2H])Oc1cc(C)c2[nH]ccc2c1CN1CC[C@@H](C2CC2)C[C@H]1c1ccc(C(=O)O)cc1` the half-life was 30.8 h (human, plasma; 100 mg twice daily, day 10, multiple ascending dose, mean).
For `CN(C)C(=O)c1cc2cnc(Nc3ccc(N4CCNCC4)cn3)nc2n1C1CCCC1`, the half-life was 26.6 ± 14 h (human, all patients, plasma; oral, estimated from accumulation ratio, 24 h dosing interval).
The half-life of `Cc1cc(C)c(CNC(=O)c2cc(Cl)c3c(c2C)O[C@@](C)([C@H]2CC[C@H](N(C)C)CC2)O3)c(=O)[nH]1` is reported as 11.8 h (item: total radioactivity; human male, whole blood; oral, 200 mg).
`COC(=O)C(Cc1cccc(C)c1I)NC(=O)CNCc1ccccc1` (stereo not drawn) gave a half-life of > 2 h (human; 1 µM).
For `COCCOc1cnc2ccn([C@H](C)c3nnc4c(F)cc(-c5cnn(C)c5)cn34)c(=O)c2c1`, the half-life was 7 h (human patients, dose escalation, plasma; oral, 300 mg once daily, day 1).
`CC(C)n1nc(-c2ccc3oc(N)nc3c2)c2c(N)ncnc21` has a half-life of 5.2 h (human patients, plasma; oral, 4 mg once daily, cycle 1 day 15, dose escalation).
The half-life of `Cc1ccc([C@@H]2O[C@H](CO)[C@@H](O)[C@H](O)[C@H]2O)cc1Cc1ccc(-c2ccc(F)cc2)s1` is reported as 10.8 h (human, maintenance hemodialysis patients; oral, 100 mg once daily, steady state, median).
`Cc1noc(C)c1-c1cc(C(O)(c2ccccn2)c2ccccn2)c2nc(C3CC3)[nH]c2c1` has a half-life of 17.8 h (human patients, plasma; oral, 6 mg, cycle 1 day 8, monotherapy).
`CCN1CCN(Cc2ccc(Nc3ncc(F)c(-c4cc(F)c5nc(C)n(C(C)C)c5c4)n3)nc2)CC1` has a half-life of 21.6 h (healthy human, fasted, plasma; oral, 200 mg, capsule).
For `C=CC(=O)NC1CCN(c2ncc3ncnc(Nc4ccc(Oc5ccc6c(c5)ncn6C)c(C)c4)c3n2)CC1`, the half-life was 28.4 h (human, male, plasma; oral, 240 mg single dose, fed, geometric mean).
The half-life of `C=CC(=O)N(C)CCOc1c(N)ncnc1-c1cc(F)cc(NC(=O)c2ccc(C3CC3)cc2F)c1C` is reported as 11.4 h (human, whole blood; oral, 400 mg, single ascending dose, median).
For `Cc1nc(Nc2ncc(C(=O)Nc3c(C)cccc3Cl)s2)cc(N2CCN(CCO)CC2)n1`, the half-life was 4.6 ± 0.8 h (human patients, plasma; oral, 85 mg/m^2, day 8).
With `C[C@@H](Oc1ccc(S(C)(=O)=O)cc1C(=O)N1C[C@@H]2C[C@]2(c2cc(C(F)(F)F)on2)C1)C(F)(F)F` the half-life was 34.2 h (LC-MS/MS; young human subjects, plasma; oral, 75 mg twice daily, steady state, multiple doses).
`CC(=O)O[C@H]1C(=O)[C@@]2(C)[C@H]([C@H](OC(=O)c3ccccc3)[C@]3(O)C[C@H](OC(=O)[C@H](O)[C@@H](NC(=O)c4ccccc4)c4ccccc4)C(C)=C1C3(C)C)[C@]1(OC(C)=O)CO[C@@H]1C[C@@H]2O` gave a half-life of 7.81 h (noncompartmental analysis; human cancer patients, plasma; intravenous infusion, 80 mg/m^2, cycle 1 day 1, added: daily oral co-medication).
The half-life of `COc1cc([C@@H]2Oc3cc([C@H]4Oc5cc(O)cc(O)c5C(=O)[C@@H]4O)ccc3O[C@H]2CO)ccc1O` is reported as 0.47 h (OATP1B1/1B3 humanized mice, plasma; oral gavage, 500 mg/kg silymarin).
The half-life of `CC(C)n1c(Nc2cccnc2)nc2cnc(Nc3ccc(N4CCN(C)CC4)cc3)nc21` is reported as 31.4 h (human, male, plasma; oral, 150 mg, day 15, added: rifampin 600 mg daily).
`CCCCCCCOc1ccc(CCC(N)(CO)CO)cc1C(F)(F)F.Cl` gave a half-life of 423 h (healthy human males, plasma; oral, 0.75 mg, day 21).
`CC(C)=CCC/C(C)=C/CC/C(C)=C/CC[C@@](C)(O)CCC1=C(C)C(=O)C(C)=C(C)C1=O` gave a half-life of 10.2 h (healthy human, plasma; oral, 400 mg, single dose, alone).
`Cc1cc(OCCOCCC(F)(F)P(=O)(O)O)ccc1CCc1cnc2c(N)nc3cc(CCC(=O)O)ccc3c2c1` gave a half-life of 9.32 h (human, serum; intratumoral, 200 µg every 2 weeks, cycle 2 day 15).
The half-life of `Cc1cc(C)c(CNC(=O)c2cc(Cl)c3c(c2C)O[C@@](C)([C@H]2CC[C@H](N(C)C)CC2)O3)c(=O)[nH]1` is reported as 39.2 h (mean; healthy male humans, plasma; oral, 25 mg, day 11, added: itraconazole).
The half-life of `NC(=O)c1[nH]cnc1N` is reported as 3.75 h (human patients, plasma; IV infusion over 1 h, 1000 mg/m^2 DTIC, cycle 2 day 1, co-administered with co-drug).
For `C[C@@H](Cn1ccc(-c2ccc(C#N)c(Cl)c2)n1)NC(=O)c1cc([C@@H](C)O)[nH]n1`, the half-life was 13.6 h (human, fasted, plasma; oral, 300 mg darolutamide tablet, geometric mean).
For `COc1ccc([C@@H](O)c2cc(-c3ncnc4cc(N5CCOCC5)ccc34)c(F)cc2Cl)nn1`, the half-life was 7.79 h (human; oral, 250 mg once daily, single dose).
`COC(=O)N[C@@H](C)CNc1nccc(-c2cn(C(C)C)nc2-c2cc(Cl)cc(NS(C)(=O)=O)c2F)n1` gave a half-life of 3.9 h (human patients, plasma; oral, 450 mg twice daily, day 1, single dose, median, added: binimetinib 45 mg once daily).
For `C#C[C@]1(COP(=O)(O)OP(=O)(O)O)O[C@@H](n2cnc3c(N)nc(F)nc32)C[C@@H]1O`, the half-life was 155 h (item: islatravir triphosphate; human, PBMC; oral, 200 mg single dose).
For `Cn1nnc2c(C(N)=O)ncn2c1=O`, the half-life was 1.6 h (human patients, plasma; oral, 20 mg/m2, day 5, dose level DL3, median, added: talazoparib 600 µg/m2).
The half-life of `CN1CCC(COc2cnc(-c3cccc(Cn4nc(-c5cccc(C#N)c5)ccc4=O)c3)nc2)CC1` is reported as 31 h (human; 500 mg, alone, geometric mean).
For `CN[C@@H](C)C(=O)N[C@H]1CN(S(=O)(=O)c2cccc(S(=O)(=O)N3CC[C@H]4CC[C@@H](C(=O)NC(c5ccccc5)c5ccccc5)N4C(=O)[C@@H](NC(=O)[C@H](C)NC)C3)c2)CC[C@H]2CC[C@@H](C(=O)NC(c3ccccc3)c3ccccc3)N2C1=O`, the half-life was 1.11 h (LC-MS/MS, noncompartmental; human, plasma; 20 mg, cycle 1 day 1).
`CC1(COc2ccc3c(c2)ncn3-c2ccc3cccc(N4CCC(N)CC4)c3n2)COC1` has a half-life of 6.3 h (human patients, recurrent/progressive HGG or DIPG, serum; oral, 130 mg/m^2, day 28, median).
The half-life of `C[C@H](Oc1ccc(Br)cc1-c1ccon1)C(=O)O` is reported as 5.66 h (LC-MS/MS, non-compartmental; human, plasma; 400 mg once daily, day 1, multiple ascending dose, mean).
`C#C[C@]1(COP(=O)(O)OP(=O)(O)OP(=O)(O)O)O[C@@H](n2cnc3c(N)nc(F)nc32)C[C@@H]1O` has a half-life of 116 to 211 h (item: intracellular triphosphate; human, PBMC).
For `O=C(COc1ccc(Cl)cc1)NC12CC(c3nnc([C@H]4C[C@@H](OC(F)(F)F)C4)o3)(C1)C2`, the half-life was 35 h (healthy human volunteers fasted, plasma; oral, 400 mg single dose, geometric mean).
For `CCN(CC)CCNC(=O)c1c(C)[nH]c(/C=C2\C(=O)Nc3ccc(F)cc32)c1C`, the half-life was 73.2 h (human patients, plasma; oral, cycle 1 day 15).
`N#CCNC(=O)c1ccc(-c2ccnc(Nc3ccc(N4CCOCC4=O)cc3)n2)cc1` has a half-life of 6.68 h (healthy human volunteers, plasma; 100 mg momelotinib once daily, day 7, fed, momelotinib alone).
For `N#Cc1cc(NC(=O)[C@H]2c3ccccc3C(=O)N(CC(F)(F)F)[C@@H]2c2cccnc2)ccc1F`, the half-life was 18.7 h (human, plasma; oral, 1200 mg, median).
For `CCOc1c([C@H](C)n2nc(C)c3c(N)ncnc32)cc(Cl)c(F)c1[C@@H]1CNC(=O)C1`, the half-life was 10.8 h (human patients, plasma; oral, 15 mg once daily, cycle 1 day 15, monotherapy, geometric mean).
`CO[C@@H]1[C@H](OC(=O)N2CC(CCN3CCOCC3)C2)CC[C@]2(CO2)[C@H]1[C@@]1(C)O[C@@H]1CC=C(C)C` has a half-life of 1.26 ± 0.55 h (humans, plasma; subcutaneous, 0.6 mg twice weekly, fifth dose).
`CC1=C(c2cccc(O)c2)[C@H](c2ccc(OCCN3CC(CF)C3)cc2)Oc2ccc(O)cc21` gave a half-life of 17 h (human, plasma; oral, 1000 mg single dose).
`CCN(CC)Cc1cc(Nc2ccnc3cc(Cl)ccc23)ccc1O` gave a half-life of 1.63 h (human, both sexes, plasma; oral, dose not given, fixed-dose combination).
With `O=C(O)C[C@H](O)C[C@H](O)/C=C/c1c(C2CC2)nc2ccccc2c1-c1ccc(F)cc1` the half-life was 2.9 h (OATP1B1/1B3 humanized mouse, plasma; oral, 5 mg/kg, added: silymarin 500 mg/kg oral).
For `CO[C@H]1C[C@@H]2CC[C@@H](C)[C@@](O)(O2)C(=O)C(=O)N2CCCC[C@H]2C(=O)O[C@H]([C@H](C)C[C@@H]2CC[C@@H](OC(=O)NCCOCCOCCOCCOCCOCCOCCOCCOCCC(=O)N3CCc4cc(Cn5nc(-c6ccc7oc(N)nc7c6)c6c(N)ncnc65)ccc4C3)[C@H](OC)C2)C[C@@H](O)[C@H](C)/C=C(\C)[C@@H](O)[C@@H](OC)C(=O)[C@H](C)C[C@H](C)/C=C/C=C/C=C/1C`, the half-life was 4.2 h (human patients, plasma; intravenous, 10 mg, cycle 1 day 15, weekly dosing, 1 h infusion, arithmetic mean).
For `CC(C)(Sc1ccncc1-c1ccc(C#N)c2ccccc12)C(=O)O`, the half-life was 17.3 h (human, plasma; oral, 10 mg once daily, added: febuxostat 40 mg).
`Cc1ccc(C)c(OCCCC(C)(C)C(=O)O)c1` has a half-life of 4.4 h (human, plasma; oral, dose not given, after lopinavir/ritonavir, geometric mean, added: lopinavir/ritonavir).

Excerpt of the above:
For `Cc1nc(Nc2ncc(C(=O)Nc3c(C)cccc3Cl)s2)cc(N2CCN(CCO)CC2)n1`, the half-life was 4.6 ± 0.8 h (human patients, plasma; oral, 85 mg/m^2, day 8).
With `C[C@@H](Oc1ccc(S(C)(=O)=O)cc1C(=O)N1C[C@@H]2C[C@]2(c2cc(C(F)(F)F)on2)C1)C(F)(F)F` the half-life was 34.2 h (LC-MS/MS; young human subjects, plasma; oral, 75 mg twice daily, steady state, multiple doses).
`CC(=O)O[C@H]1C(=O)[C@@]2(C)[C@H]([C@H](OC(=O)c3ccccc3)[C@]3(O)C[C@H](OC(=O)[C@H](O)[C@@H](NC(=O)c4ccccc4)c4ccccc4)C(C)=C1C3(C)C)[C@]1(OC(C)=O)CO[C@@H]1C[C@@H]2O` gave a half-life of 7.81 h (noncompartmental analysis; human cancer patients, plasma; intravenous infusion, 80 mg/m^2, cycle 1 day 1, added: daily oral co-medication).
The half-life of `COc1cc([C@@H]2Oc3cc([C@H]4Oc5cc(O)cc(O)c5C(=O)[C@@H]4O)ccc3O[C@H]2CO)ccc1O` is reported as 0.47 h (OATP1B1/1B3 humanized mice, plasma; oral gavage, 500 mg/kg silymarin).
